Experimental data gathered from unrelated publications.
Each numbered part is a random draw from the data of one study; scales do not carry over between parts. Substitutions count along the parent as printed.

Study 1
Target: Ras GTPase-activating protein-binding protein 1, C-terminal RGG region (G3BP1, Homo sapiens, UniProt Q13283)
Chain of UniProt Q13283 (whole entry, looked up): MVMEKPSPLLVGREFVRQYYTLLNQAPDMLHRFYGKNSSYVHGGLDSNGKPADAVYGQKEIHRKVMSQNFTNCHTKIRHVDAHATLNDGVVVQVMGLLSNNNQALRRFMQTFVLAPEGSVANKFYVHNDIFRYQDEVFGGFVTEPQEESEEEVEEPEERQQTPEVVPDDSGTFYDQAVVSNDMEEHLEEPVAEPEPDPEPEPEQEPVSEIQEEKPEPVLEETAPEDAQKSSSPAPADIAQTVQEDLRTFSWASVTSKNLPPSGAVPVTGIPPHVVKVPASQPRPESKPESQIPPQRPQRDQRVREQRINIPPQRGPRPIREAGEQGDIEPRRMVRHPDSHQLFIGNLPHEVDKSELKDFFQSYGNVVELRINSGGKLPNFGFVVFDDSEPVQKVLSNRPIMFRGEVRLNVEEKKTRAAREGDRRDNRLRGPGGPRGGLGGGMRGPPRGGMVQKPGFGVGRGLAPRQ
Method: RNA Bind-n-Seq
Form: RNA
Sample: in vitro
Concentration: 1 µM
Setting: whole 134-nt RNA, ends assumed
Added: 150 mM KCl
Reference: input library
Direction: higher = stronger binding
All sequences stand within: GGGAGUUCUACAGUCCGACGAUC … UGGAAUUCUCGGGUGUCAAGG
Strand	log2 enrichment
GUCCUGUGCUACACAUCGUAUGUACCGAAUCGGAAAAAAAGGUUUUUGGUUUUUUUGGAAAGUAUUAUGUUACGCCGUUCGGAUCUGCAC	-1.98
AAGUCCUGUGCUACACAUCGUAUGUACCGAAUCGGGAAAAAGGGAAAAAGGGAGGGAAAGUAUUAUGUUACGCCGUUCGGAUCUGCACUU	1.68
UGGGAGGUGGAUUUUGUAUAUUUUUUUAGCUCAUUUCCAGGGGUGGGAAUUUUUUUUUAAUAUGUGUCAUGAAUAAAGUUGUUUUUGAAA	3.62
AGUCCUGUGCUACACAUCGUAUGUACCGAAUCGGGGUGGGGUUUGGGGUUUUUGGGGAAAGUAUUAUGUUACGCCGUUCGGAUCUGCACU	2.06
ACCAUGCAGGUGGGCAUCUUUGGGAAGUGGGGCAAGGGGGGGAUAGGGAGGGGGGUAACACUUUGGGAACAGGUGGUCCAAAGUCGUUUC	-0.97
UCCUGUGCUACACAUCGUAUGUACCGAAUCGGGGUGGGGAAAAAGGGGUUUUUUUGGGGAAAGUAUUAUGUUACGCCGUUCGGAUCUGCA	1.57
AAGUCCUGUGCUACACAUCGUAUGUACCGAAUCGGGCCCCGGCCCCGGGGCCCCGGAAAGUAUUAUGUUACGCCGUUCGGAUCUGCACUU	-2.33
CCUGUGCUACACAUCGUAUGUACCGAAUCGGGGAAAAAAAGGGGUGGGGUUUUUUUGGGGAAAGUAUUAUGUUACGCCGUUCGGAUCUGC	0.489
UCCUGUGCUACACAUCGUAUGUACCGAAUCGGAAAAAAAGGAAAAAAAGGAAAAAAAGGGAAAGUAUUAUGUUACGCCGUUCGGAUCUGC	-1.1
CUGUGCUACACAUCGUAUGUACCGAAUCGGGGAAAAAAAGGGAAAAAAAGGGAAAAAAAGGAAAGUAUUAUGUUACGCCGUUCGGAUCUG	-1.7
UGGCCCUGGUGGCAUGCGGGGAGGAAGAGGUGGCCUCAUGGAUCGUGGUGGUCCCGGUGGAAUGUUCAGAGGUGGCAGUGGUGGAGACAG	3.34
GUCCUGUGCUACACAUCGUAUGUACCGAAUCGGCCCCCCGGGGCCCCCCGGCCCCCCGGAAAGUAUUAUGUUACGCCGUUCGGAUCUGCA	-1.15
CCUGUGCUACACAUCGUAUGUACCGAAUCGGGAAAAAGGGAAAAAAAGGGAAAAAAAGGGAAAGUAUUAUGUUACGCCGUUCGGAUCUGC	-1.81
CCUGUGCUACACAUCGUAUGUACCGAAUCGGGUUUUUUGGGUUUUUUGGGGUUUUUUGGGAAAGUAUUAUGUUACGCCGUUCGGAUCUGC	-1.24

Study 2
Target: RING finger protein unkempt homolog, zinc fingers 1-6, GST-SBP tag (UNK, Homo sapiens, UniProt Q9C0B0, residues 30-357)
Chain of UniProt Q9C0B0 (30-357, looked up): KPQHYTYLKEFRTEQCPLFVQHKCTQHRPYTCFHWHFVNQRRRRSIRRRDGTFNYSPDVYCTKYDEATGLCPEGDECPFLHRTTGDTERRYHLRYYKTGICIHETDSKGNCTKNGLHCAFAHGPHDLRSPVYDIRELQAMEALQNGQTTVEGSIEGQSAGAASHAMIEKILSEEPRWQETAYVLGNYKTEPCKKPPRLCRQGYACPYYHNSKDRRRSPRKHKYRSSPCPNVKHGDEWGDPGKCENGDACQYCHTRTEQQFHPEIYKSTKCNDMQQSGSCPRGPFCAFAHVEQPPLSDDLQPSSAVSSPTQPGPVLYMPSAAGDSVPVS
Method: RNA Bind-n-Seq
Form: RNA
Sample: in vitro
Concentration: not given
Setting: RNA with constant flanks, human-mouse chimeric sites, ends assumed
Reference: input RNA pool
Direction: higher = stronger binding
All sequences stand within: GGGAGUUCUACAGUCCGACGAUC … CAACAGAGGAUUGAGCAUCA
Strand	bound/input enrichment
GAGCGUCUCGCUCGAACUGGGAUCAUCGUGACCACUAGUGAGGCUGUCCUCCUACAGCUGGUGGCUGAUAAGGACCACCCGAAGUUCAAGGAAAUUCAGAACCUAAUUAAGGCGAGUGCC	0.145 ratio
CACGUGUCUGCAGUACUUGAUGUGGACUACUCUCCCACUGGGAAGGAGUUUGUGUCUGCCAGCUUUGAUAAGUCUAUUAGAAUCUUUCCUGUGGACAAGAGCCGAAGCAGGGAGGUAUAU	0.239 ratio
CUAAUCCCCUUUACUGCUCCCCCACUUGUCAUGCUGAUAACAAAGUCUUAUAUCCCCGUCCUAGCUUUCACUCAGAUGGCUUAUGGAGCCGGUUUCCUAGCUUUCUUGGGAGGGAUCAGA	0.893 ratio
UGUGAACUGUCUCUUGAGAUCUAAAAACAAGAUGACUUUUCCUGGCACAUAUUCCAAAGCAUAGACUUUGUUGCCUGCUGCUUCUUGUCUAAUUUACAGGGAUAUUUAAUUUUGUCAGGU	0.129 ratio
AUUCCGAUUAUGGACACCGGUGAAAACCCAGAGGUUCCCUUCCCCCGGGACAUGAUCGACUUAGAGGCCAAUUUUGAGAAGAUUGAAAAUGAACUGAAGGAAAUCAACACAAACCAGGAA	0.108 ratio
UCCCAAAUCCAGCAGCUAGAAGGAGCCUUGAGACAAACACUCCACACGCAGGGAGGGCGAUAACAUUGUACAUUGGUUUACAUUUUUCUCCUUGAAUGAUUUUUCUAGAGGUCAUAGUGC	0.335 ratio
UCUUUAAAAAAAAAAUUACAGGAAAAUACAGUGCUUUCCCUCCCAUAGAUCCACGUUCAAGCUCAAAGAGCAAAGGCUUUGCACGGAGCUCAAACAUAAAAGAAAGAAAGAUUUCUGAGA	0.547 ratio
AGAGAAAUGAGAAAGAAUCUUACACAAGAUGAGAUGCAAAGAAUGUCUACUAGAGUCCUUUUGGCGACUCUUUCCAUUCCUAUUACUCCUGAGCGAACUGAUAUUGCUCGACUUCUGGAU	0.325 ratio

Study 3
Target: RNA binding protein fox-1 homolog 2, RRM domain, GST-SBP tag (RBFOX2, Homo sapiens, UniProt O43251-10, residues 100-194)
Method: RNA Bind-n-Seq
Form: RNA
Sample: in vitro
Concentration: 365 nM
Setting: natural RNA segment, single round, ends assumed
Reference: no-protein control
Direction: higher = stronger binding
All sequences stand within: GGGAGUUCUACAGUCCGACGAUC … UGGAAUUCUCGGGUGCCAA
Target sequence (chain): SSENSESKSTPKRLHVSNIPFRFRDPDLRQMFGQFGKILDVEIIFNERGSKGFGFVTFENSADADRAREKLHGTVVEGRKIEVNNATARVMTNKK
Strand	RBNS enrichment (R)
CUAAAAUGUAGAGUUUUUUUGAUUGAGUAAUUAUACUUACUACUUAAUAAAUACUUAUUAAAAUGCUUAUUCUAAAGUACUAUGAUUUUAGUAAUGCUAUCAGUCCUCCA	0.651
AUGUGAUGGAAAGACUUUUUGUUUUCCUUUCCCAAAGAAAUAAAACGGAAAAAGCCUCUUGAGUGGUUUCUUUGGCCUGCUUGUGUCUUUGCAGGUGCGGGAGGUGAGGC	0.769
AUGGCUGAGAGCUGCCGUUCCUCUUUCACGAUCCCAGCCCCAUUUCAGUGUCUGGGGCUCUGGUAGAUGUGUUGAGGGCAAAGUAGAGGACAAGCUGUCUUUCCCAGUCA	0.827
UGCUGUUAGUGUGCUCAACUACAGAAAUAGCCGCUGCUAAGUGAUGUAGAUUUUCUACUUGAAUAUUUUUAUGUUGUAGGAACCUCAGGAGGUCAGUGUUUACUGUUUUA	0.351
UCGAGAGUGGGAGUCUGGUACACCCAUUGGAACAAGUCCUUCGAUAAAUAAAACAGUUAUCACAUUCCCACAACAACCUAAACACAGACUACCUCUCCCCUCAUCAGAUC	0.557
UUGACCUCCCGGCAGGGCAAGGUGAGGAGGCGGACCCAAAGCAGUACCAGCAGGACUUGUUGCCAGUGAUACCAAAACAGACUUUUCCCAAGCAGUGCCUCACAUGUCUG	0.426
UGGAAGAAAGAUGGAGCUCCUCCACAGAGACAGAAAGAAACCACAGCAAGAAAACAGACCUCAAGUUUCCACUCUGACCUGCCAGGUGGCCACUGGGUAAACAAGUCCUU	0.577
CAUUUAGCCUGAUUUUCCAACGUCAUUGGUGACAGGCCAAGGCCACUAUGUUAUUUCCUUUGUUCUGGUAUCCUUCCCUUGGAGGACCUUCUCUGAGUAGUGGCUCCCCA	0.321
AUGUGCCAGGCCCAGUCUUCCCACCCCAGCUGCUCCACUGGCCACCGCUAGAGCCCCUCUCCCUACCUUCUGCCUGUUUUCUCCAAUAAAUGCGGAAGGAGUUAAACUUC	0.741
GUAUAUGCGAUCUCUACCGAGAAGCAAGCACAAAAGUAGACAAAAGUAUUAAUGAGUAUUUCCUUUCUCCAUAAGUGCAGGACUGUUACUCACUACUAAACUCUACCAAG	0.347
UGCAGUCACUGGGCAGCCACAUAGCAGCUGCAGGUCCCAGGAGGGCCUGAGGUCAAAGCUGUGGAAGGCCCUCUUGGUAUCAGGGCUCUCUCCCCAUGGCCUCUUCCCCA	0.272
AAAUACAAUUCCAUUAACUACAUAGAAACUAUUAAGAAAGAGAGAAUCAAAAAUAUUUUUGUGAGGGAGUCGGUCCCAGGCAGUUUGAUGCUCUGUGGAAGGAGGCGGGA	0.497

Study 4
Target: CCND3, cyclin fold, Cln2 fusion (human)
Method: yeast growth competition, sequencing
Sample: yeast
Setting: weak parent motif
Reference: not given
Direction: higher = stronger binding
Parent: EXO1 docking peptide (human); KPECGRVQRAIFQ; partner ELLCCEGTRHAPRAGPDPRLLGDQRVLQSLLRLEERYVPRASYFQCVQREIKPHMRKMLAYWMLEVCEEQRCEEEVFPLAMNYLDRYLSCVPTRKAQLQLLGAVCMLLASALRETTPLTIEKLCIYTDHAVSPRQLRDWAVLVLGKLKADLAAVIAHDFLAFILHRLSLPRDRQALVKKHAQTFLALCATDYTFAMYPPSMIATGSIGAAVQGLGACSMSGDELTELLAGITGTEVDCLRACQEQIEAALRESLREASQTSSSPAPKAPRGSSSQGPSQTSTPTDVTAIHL
Variant	normalised enrichment score
KPEAGRVQRAIFQ [C4A]	0.00204
KPECGRVQRAIAQ [F12A]	0.368
KPECGRVARAIFQ [Q8A]	0.144
KPECGRVQAAIFQ [R9A]	0.0167
APECGRVQRAIFQ [K1A]	-0.0761
KPECGRVQRAAFQ [I11A]	-0.0608

Study 5
Target: ABI1, truncated, D143A, DHFR fusion (Arabidopsis thaliana)
Method: DHFR PCA, deep sequencing
Sample: yeast
Setting: methotrexate growth selection, single substitutions
Added: (+)-ABA 710 µM
Reference: wild-type fitted maximum
Direction: higher = stronger binding
Parent: PYL1, truncated, DHFR fusion (Arabidopsis thaliana); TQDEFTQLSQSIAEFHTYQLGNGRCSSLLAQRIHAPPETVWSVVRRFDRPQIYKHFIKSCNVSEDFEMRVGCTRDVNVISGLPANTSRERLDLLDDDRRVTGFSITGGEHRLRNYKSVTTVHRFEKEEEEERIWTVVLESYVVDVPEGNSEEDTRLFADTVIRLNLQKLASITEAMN
Variant	relative binding score [%]
I33G	4.25
R98T	107
E174D	95.2
D97R	106
A13I	97.2
F15P	40.6
F47M	1.54
V44W	-14.8
D95G	35.9
C72E	99.9
M68I	103
R46P	63.7

Other studies, line by line
Substance	target	test	system	setting	scale	quantity	result
PhoQ, residues 284 288 289 292 302 303 SLGVVW	PhoP, residues 12 14 15 18 19 VQALL (Escherichia coli, UniProt P23836)	Sort-seq, measured: YFP reporter	E. coli	PhoQ-PhoP variant library, added: 10 µM Mg2+	reference: high Mg2+ state, higher = stronger signaling	fold induction	28.1

Repeated from above (study 5):
Variant	relative binding score [%]
D95G	35.9
C72E	99.9
M68I	103
